Assay results pooled from the literature.
Parts stem from different laboratories: compare values within a part only.

Study 1
Target: Phosphate system positive regulatory protein PHO4, full length, GST-tagged (PHO4, Saccharomyces cerevisiae, UniProt P07270, residues 1-312)
Method: competition protein-binding microarray
Molecule type: double-stranded DNA, one strand shown
Medium: in vitro
Tested at: 2 µM
Notes: whole 60-bp probe, lowest competitor level
Together with: Cbf1 competitor, 0.05 µM
Direction: higher = stronger binding
Measurement: fluorescence intensity
Target sequence (chain): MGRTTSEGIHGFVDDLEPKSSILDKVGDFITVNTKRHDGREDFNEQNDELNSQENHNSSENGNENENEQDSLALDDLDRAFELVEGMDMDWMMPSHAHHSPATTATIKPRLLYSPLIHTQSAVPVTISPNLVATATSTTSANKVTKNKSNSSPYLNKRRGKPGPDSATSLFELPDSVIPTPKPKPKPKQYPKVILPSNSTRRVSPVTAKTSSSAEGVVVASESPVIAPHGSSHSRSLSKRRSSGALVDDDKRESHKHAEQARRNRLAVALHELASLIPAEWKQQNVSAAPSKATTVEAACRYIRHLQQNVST
Sequence = TGAGTACTATGTTATCAGGTGCTGCTGTTATGGATGGTCTTGATTCGCTTGACGCTGCTG; value = 5960 a.u.
Sequence = CATACCCAACCTTGCTATGTGGGTGAAGATATTTGTGTCTTGATTCGCTTGACGCTGCTG; value = 4470 a.u.
Sequence = CTAACGAAGGTTTGACTAGTGGGTGACAAGCCAAGTGTCTTGATTCGCTTGACGCTGCTG; value = 3440 a.u.

Study 2
Target: Histone acetyltransferase KAT6A, both winged helices, GST fusion (KAT6A, Homo sapiens, UniProt Q92794, residues 1-181)
Method: protein binding microarray
Molecule type: double-stranded DNA, one strand shown
Medium: in vitro
Tested at: not given
Notes: 8-mer, flanks averaged, mean of 2 arrays, mostly near background
Relative to: not given
Direction: higher = stronger binding
Measurement: E-score
Construct (chain): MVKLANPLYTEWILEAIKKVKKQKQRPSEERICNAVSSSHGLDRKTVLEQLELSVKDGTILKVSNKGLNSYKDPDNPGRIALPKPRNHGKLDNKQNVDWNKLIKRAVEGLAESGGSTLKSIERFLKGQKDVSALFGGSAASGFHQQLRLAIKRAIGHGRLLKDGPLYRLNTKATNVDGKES
Sequence = GTGGGAAC; value = -0.097
Sequence = GTGCACAC; value = -0.115
Sequence = GCTCTCGA; value = -0.05
Sequence = AGGTAACA; value = -0.201
Sequence = CCGGTGGC; value = 0.117

Study 3
Target: Max-binding protein MNT, bHLH-zipper, MAX partner unstated (MNT, Homo sapiens, UniProt Q99583, residues 220-300)
Method: protein-binding microarray
Molecule type: double-stranded DNA, one strand shown
Medium: in vitro
Tested at: not given
Notes: k-mer, scored over probes, only values ≥0.25
Direction: higher = stronger binding
Measurement: E-score
Residues (chain): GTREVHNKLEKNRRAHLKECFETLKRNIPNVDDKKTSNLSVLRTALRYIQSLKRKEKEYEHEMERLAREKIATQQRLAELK
Sequence = GCGCGCGC; value = 0.349
Sequence = ACGCGAGC; value = 0.297
Sequence = ATGCGGCC; value = 0.265
Sequence = CTGCGTGC; value = 0.311

Other studies, line by line
Substance = PhoQ, residues 284 288 289 292 302 303 TYGVAM; target = PhoP, residues 12 14 15 18 19 HLGGL (Escherichia coli, UniProt P23836); assay = Sort-seq, refers to: YFP reporter; test system = E. coli; setting = PhoQ-PhoP variant library, together with: 10 µM Mg2+; scale = relative to: high Mg2+ state, higher = stronger signaling; measurement = fold induction; value = 7.32

Some of these lines once more (study 3):
Sequence = GCGCGCGC; value = 0.349
